# Assay results of several laboratories.
# “And” joins repeats or separate records; there may be more than shown. pIC50: −log10 of the molar value.
# Target: Voltage-gated inwardly rectifying potassium channel KCNH2 (KCNH2, Homo sapiens, UniProt Q12809)
Compound,test,system,setting,scale,measurement,result
CCN(CC)CCOc1ccc(-c2nnn(Cc3ccc(OC)cc3)c2N)cc1,radioligand binding,CHO,"10 µM, human, with: radioligand 10000 nM",,inhibition,36.5%
Cc1cc(Nc2nc(C[C@@]3(C(=O)O)CCN(Cc4cccc(Cl)c4F)[C@H](C)C3)cc(C)c2F)n[nH]1,ion current,,10 µM,,inhibition,23.4%
COc1ccc2c(c1)[C@]13CCCC[C@@H]1[C@H](C2)N(C)CC3,"ligand displacement, radioligand",,10 µM,,inhibition,23.7%
CCc1nnc(-c2c(OC)cc(-c3cnc4cc(-c5cnn(C)c5)ccn34)cc2OC)o1,"ligand displacement, radioligand",,10 µM,,inhibition,3%
Cc1ccc(N2CC(N3CCC(C)(O)CC3)C2)cc1C(=O)NC1(c2ccc3c4c(cccc24)C(=O)N3C)CC1,,,30 µM,,inhibition,29.9%
CN[C@@H]1[C@H](O)[C@H](NC)[C@H]2O[C@]3(O)[C@H](O[C@@H]2[C@H]1O)O[C@H](C)C[C@H]3NC(=O)Cc1ccc(Cl)cn1,,,10 µM,,inhibition,2%
O=C(O)c1ccc(-c2nc(-c3ccccc3Cl)c3sccn23)cc1,radioligand binding,,10 µM,baseline: control,specific binding,99.1% and 93%
Cn1ccc([C@H](CO)Nc2nc(N3C[C@@H]4C[C@H]3CO4)c3cc(-c4ccccc4)oc3n2)n1,"ion current, inhibitor",,,,pIC50,4.44
CCO[C@H]1[C@H](O)[C@@H](N)[C@@H](O[C@H]2[C@H](O[C@@H]3O[C@H](CO)[C@@H](O[C@H]4O[C@@H](CN)[C@@H](O)[C@H](O)[C@H]4N)[C@H]3O)[C@@H](O)[C@H](N)C[C@@H]2N)O[C@@H]1CO,"ligand displacement, radioligand",,10 µM,,binding vs control,-12%
COc1ccc(F)cc1S(=O)(=O)Nc1cnc2c(c1)C(=O)NCCO2,"ligand displacement, radioligand",,10 µM,,inhibition,-8%
C/C(=N\OCCCN1CCCCC1)c1ccc(C(F)(F)F)cc1,ion current,,,,pIC50,5.61
COc1cc2c(cc1-n1ccnc1)C[C@H]1[C@H]3CCCC[C@@]23CCN1C,"ligand displacement, radioligand",,1 µM,,inhibition,11.9%
Cc1ccc(C2=CC(C)(C)Oc3ccc(-c4ccc(-c5ccc(C(=O)O)cc5)[nH]4)cc32)cc1,"hERG current, inhibitor",,30 µM,,inhibition,39.5%

# Repeated from above:
Compound,test,system,setting,scale,measurement,result
Cc1ccc(N2CC(N3CCC(C)(O)CC3)C2)cc1C(=O)NC1(c2ccc3c4c(cccc24)C(=O)N3C)CC1,,,30 µM,,inhibition,29.9%
